Measured values of several laboratories.
Every numbered part comes from another study and shows a few of its results, in no order. Substitutions count along the parent as printed.

Sample 1
Target: Histone acetyltransferase KAT6A, winged helix 1, GST fusion (KAT6A, Homo sapiens, UniProt Q92794, residues 1-85)
Method: protein binding microarray
Molecule type: double-stranded DNA, one strand shown
Sample: in vitro
Tested at: not given
Setting: 8-mer, flanks averaged, mean of 2 arrays, mostly near background
Baseline: not given
Reading: higher = stronger binding
Residues (chain): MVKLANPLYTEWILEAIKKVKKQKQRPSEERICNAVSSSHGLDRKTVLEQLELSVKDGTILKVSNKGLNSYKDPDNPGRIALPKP
Oligonucleotide	E-score
GCTTTCTA	-0.0927
ACTGAGGC	0.000775
GGGCGTAC	0.176
GCGAACCC	0.307
AGTAAACA	-0.126
AACCTGAG	-0.0269
CGTATATC	0.155
ATACGAGA	-0.166
GTCAGCCA	-0.15
ATGTAAAC	-0.0238
AAGTGTCC	0.0653
CGCCCCAG	0.0689
GCGCATGA	0.242
CTACATCC	-0.0158
AGCGTGCG	0.363
GGCCTGCA	-0.0606
CCTCCGTC	0.0868
CCGCAATC	0.224
ATAATATA	-0.107
AATAGAGG	-0.0785

Sample 2
Target: RING finger protein unkempt homolog, zinc fingers 1-6, GST-SBP tag (UNK, Homo sapiens, UniProt Q9C0B0, residues 30-357)
Chain of UniProt Q9C0B0 (30-357, looked up): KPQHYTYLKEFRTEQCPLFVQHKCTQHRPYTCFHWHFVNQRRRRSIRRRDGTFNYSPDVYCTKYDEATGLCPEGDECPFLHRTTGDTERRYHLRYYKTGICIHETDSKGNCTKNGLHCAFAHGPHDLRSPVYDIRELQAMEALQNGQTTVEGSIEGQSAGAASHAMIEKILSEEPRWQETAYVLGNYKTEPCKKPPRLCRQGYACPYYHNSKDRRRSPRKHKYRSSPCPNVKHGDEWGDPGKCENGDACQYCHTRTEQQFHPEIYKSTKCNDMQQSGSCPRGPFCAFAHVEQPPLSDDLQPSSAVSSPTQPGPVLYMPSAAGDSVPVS
Method: RNA Bind-n-Seq
Molecule type: RNA
Sample: in vitro
Tested at: not given
Setting: RNA with constant flanks, human and mouse sites, ends assumed
Baseline: input RNA pool
Reading: higher = stronger binding
Oligonucleotide	bound/input enrichment
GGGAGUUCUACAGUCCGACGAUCUCUGAAACACCUCAAGAAACGUACAGAAAAGUGAUGAACUGGAAAGAAACUCUGGUAUUUCCUCCAGAGGUACCUAUAUCUGAGAAAGCCAAGGACUUAAUUCUCAGAUUUUGUAUUGAUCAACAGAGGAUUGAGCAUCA	0.129 ratio
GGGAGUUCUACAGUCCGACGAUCGCCAAUCCAGGUACAAACUGGGGGGAGACUUUAAAACCUGGCCCCCAACAGAACUGGGCUAGCAAACCCCAAGACAACAAUGUGAGUAACUGGGGAGGAGCUGCUUCUGUGAAACAGACACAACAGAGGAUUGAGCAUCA	0.213 ratio
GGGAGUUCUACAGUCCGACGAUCCCUCCCCGGGCCACCCAGCCCGCCCAACUCCCAGCGGAGAGCAAGGUUUUCUUCUGUUUUCAUAGCCAGCCAGAACAAUGUUCUACGCACAUUUUGUUCUCAGUAAAAGAGGGCCUCUGGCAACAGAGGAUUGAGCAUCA	0.401 ratio
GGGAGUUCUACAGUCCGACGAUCUUUCCUAUCAAUGGAUCCAGAUUCAAAUGUAGAAACUGUGAUGACUUUGAUUUUUGUGAAACAUGUUUCAAGACAAAAAAACACAACACCAGGCAUACUUUCGGCAGGAUUAAUGAGCCACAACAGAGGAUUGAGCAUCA	0.171 ratio
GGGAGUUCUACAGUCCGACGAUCGACCUGGACCUCACACUGCUGAAUCCCCGAAUGAUUGUGGAUGUCACCCCAUAUAUGAAUCCUUCACCAUUUACCGUCUCCCCCAACACCCAUGUUUCUCAAGUGUUCAACCUGUUCAGACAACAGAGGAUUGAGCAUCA	0.629 ratio
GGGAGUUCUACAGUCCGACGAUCCUGGAGUCUCCUGUUGUUCAGCCCACACAGUCCUUCAUGGAGGUCUACUCCUGCCCUUACUGUACCAACUCCCCUAUCUUUGGCUCCAUCCUGAAGCUCACUAAACACAUUAAAGAGAACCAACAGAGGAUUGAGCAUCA	0.462 ratio
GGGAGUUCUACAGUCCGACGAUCGACAAAUGAAGGGAUUUAGAAGCCAAGUAAAUGUCAUUGGGAAGGAGAGCUACCACCACUGAGUGCUGAACAGUAAACUCAUUUUUCAGAGUUAAAAAAUUAUUUAAAAAAACAAGAUGGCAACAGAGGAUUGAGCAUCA	0.668 ratio
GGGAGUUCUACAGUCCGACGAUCAACCCAUGGCUGCUUUGUGUCACCUCAGUGACUUACAGUCCCCCUUGGCAUUUAGUUGGUACUAGAGCCAGUCAUCCUUAACAAAUCUUUUCACAUUUUAUUUCUUUCACAUGUAGUCAUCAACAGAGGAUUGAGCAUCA	9.75 ratio

Sample 3
Target: CCNB3, cyclin fold, Cln2 fusion (human)
Method: yeast growth competition, sequencing
Sample: yeast
Setting: weak parent motif
Baseline: not given
Reading: higher = stronger binding
Starting sequence: GMNC docking peptide (human); KNAKRNLSSEFAN
Variant	normalised enrichment score
E10L	-0.183
N6C	0.326
A12K	0.302
S9T	0.511
N6Y	-0.457
A3T	0.24
A12I	0.227
N2I	0.331
S8F	0.541
S9F	0.491
R5F	-0.0769
E10W	0.691
R5S	0.113
K4Y	0.0093
N6D	-0.0426
N2S	0.53
A12W	0.295
N6G	0.365
S9M	0.309
S9G	0.00944
F11S	0.272
S8R	0.382
S9V	0.51
E10V	0.422
E10K	-0.3

Sample 4
Target: ABI1, truncated, D143A, DHFR fusion (Arabidopsis thaliana)
Method: DHFR PCA, deep sequencing
Sample: yeast
Setting: methotrexate growth selection, single substitutions
With: (+)-ABA 58 µM
Baseline: wild-type fitted maximum
Reading: higher = stronger binding
Starting sequence: PYL1, truncated, DHFR fusion (Arabidopsis thaliana); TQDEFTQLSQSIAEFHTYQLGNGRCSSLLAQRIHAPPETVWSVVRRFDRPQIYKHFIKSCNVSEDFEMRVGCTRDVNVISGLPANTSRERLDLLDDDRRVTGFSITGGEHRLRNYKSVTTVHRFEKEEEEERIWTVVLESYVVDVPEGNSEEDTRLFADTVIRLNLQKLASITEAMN; partner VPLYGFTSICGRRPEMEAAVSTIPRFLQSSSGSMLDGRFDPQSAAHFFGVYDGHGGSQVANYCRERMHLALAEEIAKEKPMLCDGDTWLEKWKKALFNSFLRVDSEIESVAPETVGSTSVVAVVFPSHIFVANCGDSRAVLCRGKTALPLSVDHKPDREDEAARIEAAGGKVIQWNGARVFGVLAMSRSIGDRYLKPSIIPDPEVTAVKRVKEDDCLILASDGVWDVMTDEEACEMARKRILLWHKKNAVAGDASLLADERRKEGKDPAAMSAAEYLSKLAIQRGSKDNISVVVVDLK
Variant	relative binding score [%]
T39D	81.7
K116P	-11.2
A170E	44.6
F124D	88.3
R99M	105
S171M	79.1
P50M	2.85
M68V	80.2
R113M	91.1
E127D	93.3
I33P	-1.08
Q19N	91.3
V145N	35.3
R155V	78.9
R90C	70

Further values, each from its own experiment
Molecule	target	assay	system	conditions	scale	endpoint	value
PhoQ, residues 284 288 289 292 302 303 ASTSDA	PhoP, residues 12 14 15 18 19 LHSVQ (Escherichia coli, UniProt P23836)	Sort-seq, measured: YFP reporter	E. coli	PhoQ-PhoP variant library, with: 10 µM Mg2+	baseline: high Mg2+ state, higher = stronger signaling	fold induction	7.32
